Measurements gathered from unrelated publications.
A part holds a random share of what one study measured.

Block 1
Target: Ras GTPase-activating protein-binding protein 1, full length (G3BP1, Homo sapiens, UniProt Q13283)
Sequence of UniProt Q13283 (whole entry, looked up): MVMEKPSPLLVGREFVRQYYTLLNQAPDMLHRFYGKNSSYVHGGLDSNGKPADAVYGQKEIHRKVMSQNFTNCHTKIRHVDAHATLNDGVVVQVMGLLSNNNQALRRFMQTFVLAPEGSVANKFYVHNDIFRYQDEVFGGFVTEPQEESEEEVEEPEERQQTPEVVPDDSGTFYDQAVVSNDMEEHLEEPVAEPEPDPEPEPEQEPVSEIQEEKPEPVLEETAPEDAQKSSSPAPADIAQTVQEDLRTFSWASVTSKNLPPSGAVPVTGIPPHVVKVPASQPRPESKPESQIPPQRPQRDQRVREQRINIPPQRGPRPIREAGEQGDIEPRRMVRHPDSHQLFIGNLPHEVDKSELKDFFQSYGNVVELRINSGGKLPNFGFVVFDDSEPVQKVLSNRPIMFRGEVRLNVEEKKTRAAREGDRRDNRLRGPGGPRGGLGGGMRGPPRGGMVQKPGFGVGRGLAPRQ
Technique: RNA Bind-n-Seq
Molecule type: RNA
Medium: in vitro
Tested at: 200 nM
Setting: whole 134-nt RNA, ends assumed
Added: 150 mM KCl
Relative to: input library
Direction: higher = stronger binding
Constant ends, left off below: GGGAGUUCUACAGUCCGACGAUC … UGGAAUUCUCGGGUGUCAAGG
| Strand | log2 enrichment |
| --- | --- |
| UGUCCUGUGCUUUCACAUUCUUUCUGCAUGGAGAAAGUAAUGUAUGCACAAGUGUGGAGAUUGCCCAGCACCAGCCAAUUUAUUUGAUCA | -1.11 |
| UUGACAUGAAGACAAUGGAGACUGCAGAGAAACUGGCUAGAUUUGUUGCUCAGGUGGGACCAGAGAUCGAACAAUUCAGCAUAGAAAACA | -0.917 |
| UGUGCUACACAUCGUAUGUACCGAAUCGGGGCCCCCCCGGCCCCCCCGGGGCCCCCCCGGGGAAAGUAUUAUGUUACGCCGUUCGGAUCU | -1.6 |
| UGGGAGGUGGAUUUUAUUUAUUUUUUUAGCUCAUUUCCAGGGGUGGGAAUUUUUUUUUAAUAUGUGUCAUGAAUAAAGUUGUUUUUGAAA | 0.219 |
| UGCUAGGACUUGAUGGAUCACUAGUUUUUCUGGUAAGUAAAACUAAUUUUUUUUUUUUUUUUUUGAGACGGAAUCUCACUCUGUCACCCA | 1.04 |
| UUCAAGGAAAAACAAGAGGAGCAGGCUCGCCUCCUUGAUGAACUGGCAGGCAAGCUACAAAGCCUAGACCUUUCAGCCGCUGCCGAAAUG | -1.23 |
| GCAGGAAGUAAAAACAAAUGGAAAUGCUUCGGAUAGGGGCAGGGGUGGGGGUUGCUAAGGAAAGGGUGGGAUGGGAGUGGGUAAAGAGUU | 1.6 |
| CACAGACAACACGCACCCACACAGACACAGAGGGAAGGGGUUGGGAUGGGGACAGGGUGCACAGAAAGGCGGGGUAGGACCCCAGCCCCU | 1.62 |
| UCAAGUCCUGUGCUACACAUCGUAUGUACCGAAUCGGAAAGGGAAAGGGAAAGGGAAAGUAUUAUGUUACGCCGUUCGGAUCUGCACUUC | -0.742 |
| UCCUGUGCUACACAUCGUAUGUACCGAAUCGGGGUUUGGGGUUUGGGGUUUUUUUGGGGAAAGUAUUAUGUUACGCCGUUCGGAUCUGCA | 0.731 |

Block 2
Target: Histone acetyltransferase KAT6A, both winged helices, GST fusion (KAT6A, Homo sapiens, UniProt Q92794, residues 1-181)
Technique: protein binding microarray
Molecule type: double-stranded DNA, one strand shown
Medium: in vitro
Tested at: not given
Setting: 8-mer, flanks averaged, mean of 2 arrays, mostly near background
Relative to: not given
Direction: higher = stronger binding
Construct (chain): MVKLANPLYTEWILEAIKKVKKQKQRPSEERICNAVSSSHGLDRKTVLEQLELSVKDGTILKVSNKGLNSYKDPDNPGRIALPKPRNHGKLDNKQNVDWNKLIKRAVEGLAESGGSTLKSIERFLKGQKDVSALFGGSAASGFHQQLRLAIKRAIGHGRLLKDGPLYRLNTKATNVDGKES
| Strand | E-score |
| --- | --- |
| ATTACTAC | -0.0473 |
| ACTCGGTG | -0.0563 |
| GTGGGCAA | -0.109 |
| CGCATTAC | 0.185 |
| CAAAACAC | 0.0294 |
| CGGTCCCC | 0.0724 |
| AGAGCTCC | -0.0512 |
| GCGGGGTA | 0.24 |
| GGAATACA | 0.00931 |
| GTAATCAA | -0.0438 |
| AATATGGG | -0.164 |
| CCCGGATC | 0.0175 |
| GGCCATAA | -0.16 |
| CGTACAAC | 0.157 |
| ATTAACAA | -0.00792 |
| ACATAGAA | -0.155 |
| GTGCTGCA | 0.00483 |
| ACGTGCCG | 0.239 |
| ACCGTTGG | -0.0295 |
| CCCTAGTC | -0.238 |
| CACTCCGC | 0.132 |
| GGTCACCA | -0.0956 |
| AACTCAAC | -0.117 |
| ACTGTTCC | -0.00939 |
| TACTCGGA | 0.0454 |

Block 3
Target: RNA binding protein fox-1 homolog 2, RRM domain, GST-SBP tag (RBFOX2, Homo sapiens, UniProt O43251-10, residues 100-194)
Technique: RNA Bind-n-Seq
Molecule type: RNA
Medium: in vitro
Tested at: 365 nM
Setting: natural RNA segment, single round, ends assumed
Relative to: no-protein control
Direction: higher = stronger binding
Constant ends, left off below: GGGAGUUCUACAGUCCGACGAUC … UGGAAUUCUCGGGUGCCAA
Target sequence (chain): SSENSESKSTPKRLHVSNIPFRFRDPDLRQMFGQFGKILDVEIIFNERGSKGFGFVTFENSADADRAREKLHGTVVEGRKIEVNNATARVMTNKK
| Strand | RBNS enrichment (R) |
| --- | --- |
| CUUUGCUAACCUCAGCAGUUACUUUGUUUCUUUUGUUUAGAAAAGUGAUUGCAAUCCGUGUAUUUUGACCAAAGUUCUCUAUUUUUCCUUGACUAAAACAAGAUAAUGAG | 0.442 |
| UUUUGUUUUGUUUUAAUGGCUCAUUUGUAAAAUUGUCCUAAUUUUUCCUAGCUUUCAGCCAUUAGAAACUCUUUUAAUAGUUCCUUUUGAGUUGUGAGCUCUUCUUCUGU | 0.539 |
| UCUUGUGUGUUGCUUGGACAUUUGCAAUUCAGAAGAUAAGCUAGAGAGGCUCUUACUAGGGCCCUCAUUUCUCCUUUUCUGUAUAAGUAUAAGGUCCAGGCUGGUCCUUA | 0.272 |
| UCAUUACAGAGGUAUGUCUUUGGUUCUUAAACUAUCUGUCUAAAAUAAAGCUGUAAAAAAUUAACAGCUUUAAAAGGCAACUUUUUUUUAAGUGGUAUAUUGUGAACUUU | 0.419 |
| UUUAAUAAAUGUUAUAAUACCAACCUACUAACUCUGGACUAUGUUUGUUUAUUAACCUUUCCGUGUUUAAUGAAAACAAACAGGGAUAAAUAAAGUCUUGAGUUCCUGGA | 0.758 |
| AAGCCGGUCAAACUAUAUAAACUCUGGCUCACCUUGCCCAGUGGUGAGGGCUGCCUCUGUGCCAGGAUGCCAAGGACCGCUGCACAUUUCCAAAUUCACAGCAGUGGAUC | 0.309 |
| UUGUAGUCUCACAGUAUAACAGAUAUUCUAAUUCUUCUUAAUAUUCCCCCAUAAUGCCAGAAAUUGGCUUAAUGAUGCUUUCACUAAAUUCAUCAAAUAGAUUGCUCCUA | 0.921 |
| GGGUGGUUUUUCACUGAAAAGGGGGGUACACCUAUAGCUUUCUUGAUGUUCAAUCAAUCAGUCACUGUGUCCCAGACAUAUUCAAUAAACACAGAUUGGUACCACCCAGC | 0.493 |
| UGAAAAAGAAAACAUAGGUCUCUUAAACCAGGCAGCAUCCACAUUCUGGAAGUUGAUAGUGAACAGUUCUCCGUGUAACAGUGACUCUCCAUGAAAUUCCGUUUCCUCUG | 0.228 |
| CAGUGCUGGACUGAUUCUCCCAGGCUGCAGUAGGGAUAGGGCAGGGAUAGGGACAGCCCAGGUCACAGCCAGGGUCAACAGAGGUACCACAGAGCUACCUUUUGGGAUGA | 0.77 |
| AAUUAAAAAUGCCAAAUAUCGCGCCUCCAUCCUUUAUACUUCUAAAAUAAAAUCUCUAGUCCAAACACACUGACAGUAUUAUGUUUGCCUGAAUGUGAAACAUUCCUCCU | 1.1 |
| UUACAACUCAUGUUUACUUUUUAAAAUGAUUUAGACUGAUUUUCAGCUUUUAUUUCAUUACAAUUAAAGAUGUCUCAUGUACUUGGAAAAGUGAGCAUAUUUUUUUUUGU | 0.821 |

Block 4
Target: Prothrombin, mature alpha-thrombin (F2, Homo sapiens, UniProt P00734)
Technique: aptamer microarray, sandwich
Molecule type: DNA with 2'F-ANA
Medium: in vitro
Tested at: 200 nM
Setting: whole 15-mer aptamer, many near background
Added: Cy3 exosite-II aptamer, 400 nM
Direction: higher = stronger binding
Strand: GGTTGGTGTGGTTGG
| Modification | mean fluorescence intensity |
| --- | --- |
| 2'F-ANA at 1 2 3 6 8 9 10 12 | 85.5 a.u. |
| 2'F-ANA at 1 3 5 6 8 9 10 11 12 13 15 | 72.9 a.u. |
| 2'F-ANA at 1 6 9 11 12 13 | 225 a.u. |
| 2'F-ANA at 1 3 5 8 9 10 14 | 47.9 a.u. |
| 2'F-ANA at 10 11 12 13 14 | 122 a.u. |
| 2'F-ANA at 2 4 5 6 7 10 12 13 15 | 55.2 a.u. |
| 2'F-ANA at 1 2 5 6 8 11 14 15 | 47.2 a.u. |
| 2'F-ANA at 1 2 6 8 10 11 12 13 14 | 49.5 a.u. |
| 2'F-ANA at 1 2 5 8 11 13 14 15 | 51.2 a.u. |
| 2'F-ANA at 3 6 8 10 12 13 14 15 | 381 a.u. |
| 2'F-ANA at 1 3 6 7 10 12 15 | 106 a.u. |
| 2'F-ANA at 1 2 3 4 8 9 11 12 13 14 15 | 68.4 a.u. |
| 2'F-ANA at 1 3 4 5 9 10 11 12 13 15 | 52.8 a.u. |
| 2'F-ANA at 4 5 7 9 13 15 | 51.2 a.u. |
| 2'F-ANA at 1 2 3 4 6 7 8 10 11 12 13 14 | 53.5 a.u. |
| 2'F-ANA at 3 4 5 6 7 8 9 10 13 14 | 61.8 a.u. |
| 2'F-ANA at 1 5 6 7 8 9 12 13 14 | 56.5 a.u. |
| 2'F-ANA at 2 3 6 7 9 11 12 13 15 | 725 a.u. |
| 2'F-ANA at 3 5 9 10 12 14 | 61.5 a.u. |
| 2'F-ANA at 2 3 6 7 8 9 10 12 13 15 | 354 a.u. |
| 2'F-ANA at 3 8 9 10 11 12 | 630 a.u. |
| 2'F-ANA at 1 2 4 6 8 9 13 14 15 | 47 a.u. |
| 2'F-ANA at 3 7 8 12 13 15 | 1330 a.u. |
| 2'F-ANA at 2 4 5 6 7 8 9 10 11 | 50.2 a.u. |
| 2'F-ANA at 5 7 10 12 13 14 | 43.8 a.u. |

A few entries again (block 4):
| Modification | mean fluorescence intensity |
| --- | --- |
| 2'F-ANA at 1 2 5 6 8 11 14 15 | 47.2 a.u. |
| 2'F-ANA at 1 2 6 8 10 11 12 13 14 | 49.5 a.u. |
| 2'F-ANA at 1 2 5 8 11 13 14 15 | 51.2 a.u. |
| 2'F-ANA at 3 6 8 10 12 13 14 15 | 381 a.u. |
| 2'F-ANA at 1 3 6 7 10 12 15 | 106 a.u. |
| 2'F-ANA at 1 2 3 4 8 9 11 12 13 14 15 | 68.4 a.u. |
| 2'F-ANA at 1 3 4 5 9 10 11 12 13 15 | 52.8 a.u. |
| 2'F-ANA at 4 5 7 9 13 15 | 51.2 a.u. |
